Experimental data from different studies.
Each numbered part is a random draw from the data of one study; scales do not carry over between parts. Numbers after ± are the reported error.

Sample 1 — organism: SARS-CoV-2 Wuhan spike VSV pseudovirus; read-out: pseudovirus entry; concentration: 10 µM
`COCCCN1CCC(NC(=O)c2cc(Cl)c(N)c3c2OCC3)CC1` gave an inhibition of 96%.
For `CCSc1ncnc2c1sc1nc(C(C)C)c3c(c12)CC(C)(C)OC3`, the inhibition was 75%.
The inhibition of `O=C(CCc1ccccn1)N1CCCC(CNC(=O)C2(c3ccc(Cl)cc3)CC2)C1` (centres unmarked) is reported as 78%.
With `O=C(Nc1nc2c(s1)CCC2)c1[nH]nc(C2CC2)c1Br` the inhibition was 86%.
The inhibition of `Cc1oc(-c2ccc(C(F)(F)F)cc2)nc1CN1CCN(c2ccccc2)C(=O)C1` is reported as 65%.
With `CNC(=O)NC(=O)Cn1ncc(Cl)c(Cl)c1=O` the inhibition was 58%.
`Cc1nn(CCC(C)C)c2c1C(CCc1ccccc1)CC(=O)N2` (centres unmarked) has an inhibition of 100%.
The inhibition of `CCNC(=O)[C@H]1O[C@@H](n2cnc3c(N)nc(NCCc4ccc(CCC(=O)O)cc4)nc32)[C@H](O)[C@@H]1O` is reported as 98%.
The inhibition of `Cc1cc(Cl)c2c3c(c(=O)oc2c1)CCC3` is reported as 61%.
`O=C(Nc1ccc2c(c1)OCCO2)c1ccccc1-n1ncc(Cl)c(Cl)c1=O` has an inhibition of 65%.

Other studies, line by line
rep papain-like protease: Replicase polyprotein 1ab, papain-like protease (rep, Severe acute respiratory syndrome coronavirus 2, UniProt P0DTD1)
rep nsp14: Replicase polyprotein 1ab, nsp14 (rep, Severe acute respiratory syndrome coronavirus 2, UniProt P0DTD1)
rep nsp12 RdRp: Replicase polyprotein 1ab, nsp12 RdRp (rep, Severe acute respiratory syndrome coronavirus 2, UniProt P0DTD1)
`CNC(=O)[C@@H](NC(=O)[C@H](CC(C)C)[C@H](O)C(=O)NO)C(C)(C)C` gave an activity of 21.3% (rep papain-like protease; concentration not given, C111S mutant; relative to: positive control).
With `O=C(NC1CCN(c2ncnc3[nH]cnc23)CC1)c1cccc(S(=O)(=O)N2CCCCCC2)c1` the inhibition was 20.7% (rep nsp14; enzyme activity; SARS-CoV-2; concentration not given).
`CCC(CC)[C@H](NC(C)=O)[C@@H]1[C@H](O)[C@@H](C(=O)O)C[C@H]1N=C(N)N` gave an IC50 of 3.4 ± 0.3 nM (neuraminidase (Influenza B virus, UniProt C0LT34, G145E)).
`CCC(CC)COC(=O)[C@H](C)N[P@](=O)(OC[C@H]1O[C@@](C#N)(c2ccc3c(N)ncnn23)[C@H](O)[C@@H]1O)Oc1ccccc1` gave an EC90 of 400 ± 100 nM (SARS-CoV-2 Omicron; viral replication; Calu-3).
The inhibition of `C1CC2C3C4C5CCC4C24CNCC54C13.Cl` is reported as 0% (Matrix protein 2 (Influenza A virus, UniProt P0DOF5, S31N); concentration not given, pH 5.5, cell-based).
`Nc1nc2c(ncn2[C@@H]2O[C@H](COP(=O)(O)OP(=O)(O)OP(=O)(O)OC[C@H]3O[C@@H](n4cnc5c(=O)[nH]c(N)nc54)[C@H](O)[C@@H]3O)[C@@H](O)[C@H]2O)c(=O)[nH]1` has a ΔTm of 0.3 °C (rep nsp14; thermal shift; 20 µM).
With `Cc1ccc(C(=O)Nc2cccc(C(F)(F)F)c2)cc1Nc1nc(-c2cccnc2)nc2c1cnn2C` the BLI response was -0.02 nm (rep nsp12 RdRp; binding, biolayer interferometry; concentration not given).
`N#C[C@@]1(n2ccc(N)nc2=O)O[C@H](CO)[C@@H](O)[C@H]1O` has an EC50 of 900 ± 1200 nM (SARS-CoV-2; viral replication; Calu-3, Alpha).
The activity of `COc1ccc2c(c1O)-c1c(OC)c(OC)cc3c1[C@H](C2)N(C)CC3.Cl` is reported as 23% (rep papain-like protease; concentration not given, C111S mutant; relative to: positive control).
The BLI response of `O=C(Nc1nc(-c2ccc(O)c(O)c2)c(-c2ccccc2)s1)c1ccc(O)c(O)c1` is reported as 0.8 nm (rep nsp12 RdRp; binding, biolayer interferometry; concentration not given).

Repeated from above (other studies, line by line):
The inhibition of `C1CC2C3C4C5CCC4C24CNCC54C13.Cl` is reported as 0% (Matrix protein 2 (Influenza A virus, UniProt P0DOF5, S31N); concentration not given, pH 5.5, cell-based).
With `Cc1ccc(C(=O)Nc2cccc(C(F)(F)F)c2)cc1Nc1nc(-c2cccnc2)nc2c1cnn2C` the BLI response was -0.02 nm (rep nsp12 RdRp; binding, biolayer interferometry; concentration not given).
`N#C[C@@]1(n2ccc(N)nc2=O)O[C@H](CO)[C@@H](O)[C@H]1O` has an EC50 of 900 ± 1200 nM (SARS-CoV-2; viral replication; Calu-3, Alpha).
